Published values collected from several papers.
Lines come from different studies, so protocols differ. Numbers after ± are the reported error.

Substance | tested on | test | test system | setting | how to read | endpoint | value
C#CC(=O)Nc1ccc([As]2SCCS2)cc1 | NCM460 | cell viability, MTS | – | – | – | IC50 | 3.2 ± 0.78 µM
Pillar[6]MaxQ | – | host-guest binding, isothermal titration calorimetry | 20 mM sodium phosphate buffer | pH 7.4, with: mephedrone | – | Kd | 0.0524 µM
C[C@H](NP(=O)(Nc1ccn([C@H]2CS[C@@H](COP(=O)(N[C@@H](C)C(=O)OCc3ccccc3)N[C@@H](C)C(=O)OCc3ccccc3)O2)c(=O)n1)N[C@@H](C)C(=O)OCc1ccccc1)C(=O)OCc1ccccc1 | CEM/TK− | cell proliferation | – | 72 h | – | IC50 | 155 ± 38 µM
20-methyl spirolide G | nicotinic acetylcholine receptor (Torpedo marmorata) | binding | – | Pecten maximus extract 25 mg/mL, with: biotin-α-bungarotoxin | – | IC50 | 0.0238 ± 0.0115 µM
AEOL 10150 | – | multiplex immunoassay | rat, status epilepticus, piriform cortex | sc, 7 mg/kg every 4 h, 24 h, from 5 min post-SE | – | IL-1β level | no effect
C[C@H](NP(=O)(Nc1ccn([C@H]2CS[C@@H](CO)O2)c(=O)n1)N[C@@H](C)C(=O)OCc1ccccc1)C(=O)OCc1ccccc1 | HeLa TK-deficient | cell proliferation | – | 3 d | – | IC50 | 256 ± 21 µM
gymnodimine A | nicotinic acetylcholine receptor (Torpedo marmorata) | binding | – | with: biotin-α-bungarotoxin 80 nM | – | Ki | 0.0192 ± 0.00828 µM
NC12CC3CC(CC(C3)C1)C2 | Influenza A virus | viral replication, plaque size reduction | MDCK, A/Swine/Iowa/11-0909/2010 (H1N1) | – | – | EC50 | < 1 µM
13-desmethyl spirolide C | nicotinic acetylcholine receptor (Torpedo marmorata) | binding | – | with: biotin-α-bungarotoxin 80 nM | – | Ki | 0.00177 ± 0.00114 µM
Nc1ccc([As]2SCCS2)cc1 | HCT-116 | cell viability, MTS | – | – | – | IC50 | 1.86 ± 0.34 µM
Cc1cc(/C=C/C#N)cc(C)c1Oc1nc(NC2CCN(Cc3ccc(P(C)(C)=O)cc3)CC2)nc2ccsc12 | Human immunodeficiency virus 1 | viral replication | MT-4, L100I mutant | – | relative to: doravirine EC50 over compound EC50 | potency ratio | ~4.7 fold

For quick reference, copied from above:
Substance | tested on | test | test system | setting | how to read | endpoint | value
C[C@H](NP(=O)(Nc1ccn([C@H]2CS[C@@H](COP(=O)(N[C@@H](C)C(=O)OCc3ccccc3)N[C@@H](C)C(=O)OCc3ccccc3)O2)c(=O)n1)N[C@@H](C)C(=O)OCc1ccccc1)C(=O)OCc1ccccc1 | CEM/TK− | cell proliferation | – | 72 h | – | IC50 | 155 ± 38 µM
